# Measurements from different studies.
# Lines come from different studies, so protocols differ. “And” joins repeats or separate records; there may be more than shown. ± marks the error that the study gave.
# B1: NOTCH3 EGF5-12 197-505 (Homo sapiens, UniProt Q9UM47); sequence looked up; chain PAVPCAPSPCRNGGTCRQSGDLTYDCACLPGFEGQNCEVNVDDCPGHRCLNGGTCVDGVNTYNCQCPPEWTGQFCTEDVDECQLQPNACHNGGTCFNTLGGHSCVCVNGWTGESCSQNIDDCATAVCFHGATCHDRVASFYCACPMGKTGLLCHLDDACVSNPCHEDAICDTNPVNGRAICTCPPGFTGGACDQDVDECSIGANPCEHLGRCVNTQGSFLCQCGRGYTGPRCETDVNECLSGPCRNQATCLDRIGQFTCICMAGFTGTYCEVDIDECQSSPCVNGGVCKDRVNGFSCTCPSGFSGSTCQ
# B2: Imd (Marsupenaeus japonicus, UniProt C6L429); sequence looked up; chain MDNIKTDSAPLGSVSSDLQGENPTRQQRQIYNITGSSGVHIGPVIHNLHGMKPCSQHKPQDMPLKKDVEELLKCSREIEERDKIEVSEHLGSSWKSLGRVMGFSAGQLENMTADHTRNVDRVYEMLNRWHDKEAEDATVARLTQMIIKVKAYHVLKKIAP
# B3: spdl-1 C-terminal 362-479 (Caenorhabditis elegans, UniProt Q17695); sequence looked up; chain PVVNKDFEHPLLAAPLKTLNNGRPSFFIKPKNVEPMPQLGHSLSSIAVTPQKPAAKFTTRSSIKDDTSEWAERRMKAQAEKKLATPTPRYNYIKLSEPVPKFKPAVLQMPSTSETKEN
# B4: USP7 207-560 C223A (Homo sapiens, UniProt Q93009); sequence looked up; chain SKKHTGYVGLKNQGATAYMNSLLQTLFFTNQLRKAVYMMPTEGDDSSKSVPLALQRVFYELQHSDKPVGTKKLTKSFGWETLDSFMQHDVQELCRVLLDNVENKMKGTCVEGTIPKLFRGKMVSYIQCKEVDYRSDRREDYYDIQLSIKGKKNIFESFVDYVAVEQLDGDNKYDAGEHGLQEAEKGVKFLTLPPVLHLQLMRFMYDPQTDQNIKINDRFEFPEQLPLDEFLQKTDPKDPANYILHAVLVHSGDNHGGHYVVYLNPKGDGKWCKFDDDVVSRCTKEEAIEHNYGGHDDDLSVRHCTNAYMLVYIRESKLSEVLQAVTDHDIPQQLVERLQEEKRIEAQKRKERQE
# B5: lptC 24-191 (Escherichia coli, UniProt P0ADV9); sequence looked up; chain MAEKDDTAQVVVNNNDPTYKSEHTDTLVYNPEGALSYRLIAQHVEYYSDQAVSWFTQPVLTTFDKDKIPTWSVKADKAKLTNDRMLYLYGHVEVNALVPDSQLRRITTDNAQINLVTQDVTSEDLVTLYGTTFNSSGLKMRGNLRSKNAELIEKVRTSYEIQNKQTQP
# B6: ADAMTS13 75-1427 (Homo sapiens, UniProt Q76LX8); chain AAGGILHLELLVAVGPDVFQAHQEDTERYVLTNLNIGAELLRDPSLGAQFRVHLVKMVILTEPEGAPNITANLTSSLLSVCGWSQTINPEDDTDPGHADLVLYITRFDLELPDGNRQVRGVTQLGGACSPTWSCLITEDTGFDLGVTIAHEIGHSFGLEHDGAPGSGCGPSGHVMASDGAAPRAGLAWSPCSRRQLLSLLSAGRARCVWDPPRPQPGSAGHPPDAQPGLYYSANEQCRVAFGPKAVACTFAREHLDMCQALSCHTDPLDQSSCSRLLVPLLDGTECGVEKWCSKGRCRSLVELTPIAAVHGRWSSWGPRSPCSRSCGGGVVTRRRQCNNPRPAFGGRACVGADLQAEMCNTQACEKTQLEFMSQQCARTDGQPLRSSPGGASFYHWGAAVPHSQGDALCRHMCRAIGESFIMKRGDSFLDGTRCMPSGPREDGTLSLCVSGSCRTFGCDGRMDSQQVWDRCQVCGGDNSTCSPRKGSFTAGRAREYVTFLTVTPNLTSVYIANHRPLFTHLAVRIGGRYVVAGKMSISPNTTYPSLLEDGRVEYRVALTEDRLPRLEEIRIWGPLQEDADIQVYRRYGEEYGNLTRPDITFTYFQPKPRQAWVWAAVRGPCSVSCGAGLRWVNYSCLDQARKELVETVQCQGSQQPPAWPEACVLEPCPPYWAVGDFGPCSASCGGGLRERPVRCVEAQGSLLKTLPPARCRAGAQQPAVALETCNPQPCPARWEVSEPSSCTSAGGAGLALENETCVPGADGLEAPVTEGPGSVDEKLPAPEPCVGMSCPPGWGHLDATSAGEKAPSPWGSIRTGAQAAHVWTPAAGSCSVSCGRGLMELRFLCMDSALRVPVQEELCGLASKPGSRREVCQAVPCPARWQYKLAACSVSCGRGVVRRILYCARAHGEDDGEEILLDTQCQGLPRPEPQEACSLEPCPPRWKVMSLGPCSASCGLGTARRSVACVQLDQGQDVEVDEAACAALVRPEASVPCLIADCTYRWHVGTWMECSVSCGDGIQRRRDTCLGPQAQAPVPADFCQHLPKPVTVRGCWAGPCVGQGTPSLVPHEEAAAPGRTTATPAGASLEWSQARGLLFSPAPQPRRLLPGPQENSVQSSACGRQHLEPTGTIDMRGPGQADCAVAIGRPLGEVVTLRVLESSLNCSAGDMLLLWGRLTWRKMCRKLLDMTFSSKTNTLVVRQRCGRPGGGVLLRYGSQLAPETFYRECDMQLFGPWGEIVSPSLSPATSNAGGCRLFINVAPHARIAIHALATNMGAGTEGANASYILIRDTHSLRTTAFHGQQVLYWESESSQAEMEFSEGFLKAQASLRGQYWTLQSWVPEMQDPQSWKGKEGT
# B7: IL18 37-193 S46C/C74S/C104S/C112S/C163S/V189C (Homo sapiens, UniProt Q14116); chain YFGKLESKLCVIRNLNDQVLFIDQGNRPLFEDMTDSDSRDNAPRTIFIISMYKDSQPRGMAVTISVKSEKISTLSSENKIISFKEMNPPDNIKDTKSDIIFFQRSVPGHDNKMQFESSSYEGYFLASEKERDLFKLILKKEDELGDRSIMFTCQNED
# B8: ADRM1 265-388 (Homo sapiens, UniProt Q16186); chain SDLQSILATMNVPAGPAGGQQVDLASVLTPEIMAPILANADVQERLLPYLPSGESLPQTADEIQNTLTSPQFQQALGMFSAALASGQLGPLMCQFGLPAEAVEAANKGDVEAFAKAMQNNAKPE
# B9: UPF2 761-1227 (Homo sapiens, UniProt Q9HAU5); sequence looked up; chain EKTVKKKRPPLQEYVRKLLYKDLSKVTTEKVLRQMRKLPWQDQEVKDYVICCMINIWNVKYNSIHCVANLLAGLVLYQEDVGIHVVDGVLEDIRLGMEVNQPKFNQRRISSAKFLGELYNYRMVESAVIFRTLYSFTSFGVNPDGSPSSLDPPEHLFRIRLVCTILDTCGQYFDRGSSKRKLDCFLVYFQRYVWWKKSLEVWTKDHPFPIDIDYMISDTLELLRPKIKLCNSLEESIRQVQDLEREFLIKLGLVNDKDSKDSMTEGENLEEDEEEEEGGAETEEQSGNESEVNEPEEEEGSDNDDDEGEEEEEENTDYLTDSNKENETDEENTEVMIKGGGLKHVPCVEDEDFIQALDKMMLENLQQRSGESVKVHQLDVAIPLHLKSQLRKGPPLGGGEGEAESADTMPFVMLTRKGNKQQFKILNVPMSSQLAANHWNQQQAEQEERMRMKKLTLDINERQEQED
# B10: Ncoa1 260-369 (Mus musculus, UniProt P70365); sequence looked up; chain ESFMTKQDTTGKIISIDTSSLRAAGRTGWEDLVRKCIYAFFQPQGREPSYARQLFQEVMTRGTASSPSYRFILNDGTMLSAHTKCKLCYPQSPDMQPFIMGIHIIDREHS
# B11: TNFSF4 51-183 (Homo sapiens, UniProt P23510); sequence looked up; chain QVSHRYPRIQSIKVQFTEYKKEKGFILTSQKEDEIMKVQNNSVIINCDGFYLISLKGYFSQEVNISLHYQKDEEPLFQLKKVRSVNSLMVASLTYKDKVYLNVTTDNTSLDDFHVNGGELILIHQNPGEFCVL
Substance,partner,test,system,setting,Kd
"DHEYVLTESFLDSGAFPNHDVIDHNKMLNSNYNGNGILNKGGVLGLVKEYYKKSDVGR (ATG9 940-997 (Saccharomyces cerevisiae, UniProt Q12142); sequence looked up)","Atg23 full-length, dimer (yeast, UniProt Q06671)",BLI,,,0.37 µM
SQAPARPPKPRPRRTAY (Cbl-b residues 899-915),"SH3KBP1 1-58 (Homo sapiens, UniProt Q96B97)",ITC,peptide,25 °C,9.9 ± 3.8 µM
B1 (NOTCH3 EGF5-12 197-505),"DLL4 27-400 G28S/F107L/I143F/H194Y/L206P/N257P/T271L/F280Y/S301R/Q305P (Homo sapiens, UniProt Q9NR61)",SPR,,,0.049 µM
B2 (Imd),"Srb2 (Marsupenaeus japonicus, UniProt A0A7D1KMN5)",ITC,,,1.69 ± 0.61 µM
STIP1 fragment (Homo sapiens) (sequence not shown),"SNCA (Homo sapiens, UniProt P37840)",NMR titration,,,169 ± 67 µM
B3 (spdl-1 C-terminal 362-479),"rod-1 2-418 (Caenorhabditis elegans, UniProt Q20849)",MST,,,15.2 ± 3.1 µM
"KLLMIIHDRREFAKFEKEKMNAKWDTGENPIYKSAVTTVVNPKYEGK (ITGB1 752-798 (Homo sapiens, UniProt P05556-1); sequence looked up)","Tln2 312-408 (Mus musculus, UniProt Q71LX4)",NMR titration,,,652 µM
B4 (USP7 207-560 C223A),"ubiquitin, 15N-labelled (UniProt P0CG48)",NMR titration,,,241 ± 39 µM
RPSVITCA (VGLL4 (Homo sapiens)),IRF2BP2 fragment (Homo sapiens),ITC,peptide,,3.16 µM and 3.15 µM
GEVAKAAKVK (IL1RAP 339-348 (Homo sapiens); acetylated N-terminus/C-terminal amide),"IL1RL1/IL33 ST2 , IL-33 19-328",SPR,peptide,,47 µM
"GHMMSKLFLDELPESLSRKIGTVVRVLPSSLEIFEELYKYALNEN (RTT106 residues 1-42 (Saccharomyces cerevisiae, UniProt P40161))",histone H3/H4 tetramer (Xenopus laevis),ITC,,,0.6 µM
B5 (lptC 24-191),"LptB2FG C204A/C28S/C91T, MTSL spin label (Escherichia coli, UniProt P0A9V1)",CW EPR titration,,"one-site fit, in nanodiscs",2.6 ± 0.3 µM
B6 (ADAMTS13 75-1427),APOB/LDL apoB100 (Homo sapiens),ELISA,,,0.0108 µM
GRIN2A fragment S1459A (sequence not shown),SNX27 fragment (Rattus norvegicus),ITC,,,49.9 µM
B7,"IL18BP (Homo sapiens, UniProt O95998)",SPR,,,1.8e-05 µM
B8 (ADRM1 265-388),UCHL5 (Homo sapiens),ITC,,,0.0064 µM
"SDLACRLLGQSMDESGLPQLTSYDCEVNAPIQGSGSGSRNLLQGEELLRALDQVN (HIF-1α CTAD 776-826 (GS)2 insertion (Homo sapiens, UniProt Q16665); sequence looked up)","Crebbp 340-439 (Mus musculus, UniProt P45481)",fluorescence polarisation,,,0.12 µM
B9 (UPF2 761-1227),"UPF3B (Homo sapiens, UniProt Q9BZI7)",BLI,,,0.0399 µM
Notch ankyrin domain E226A/R227A/R107A (Drosophila),"dx (Drosophila melanogaster, UniProt Q23985)",AUC,,,13 µM
B10 (Ncoa1 260-369),"NR4A2 1-165 (Homo sapiens, UniProt P43354)",ITC,,,8.1 µM
B11 (TNFSF4 51-183),"TNFRSF4 29-170 W86A (Homo sapiens, UniProt P43489)",SPR,,,1.6 µM
trastuzumab IgG1 (Homo sapiens),"FCGR1A (Homo sapiens, UniProt P12314)",SPR,,,0.00089 µM
FFFTYK (designed peptide; FITC label),"NHERF2 142-254 (Homo sapiens, UniProt Q15599-1)","fluorescence intensity change, fluorescence titration",peptide,,> 1000 µM

# Some of these lines once more:
Substance,partner,test,system,setting,Kd
B11 (TNFSF4 51-183),"TNFRSF4 29-170 W86A (Homo sapiens, UniProt P43489)",SPR,,,1.6 µM
